Results collected from several papers.
Parts stem from different laboratories: compare values within a part only. Changes are numbered by the printed parent chain.

Block 1 — technique: protein-binding microarray; molecule type: double-stranded DNA, one strand shown; medium: in vitro; tested at: 940 nM top; setting: 60-bp whole probe; added: salmon DNA 0.4 mg/ml; baseline: random background probes; reading: higher = stronger binding; constant ends, left off below: GCCTAGCAC … GTCTTGATTCGCTTGACGCTGCTG
Target: Interferon regulatory factor 5, full length, phosphomimetic (IRF5, Homo sapiens, UniProt Q13568-2, residues 1-514, S451D/S453D/S456D/S462D)
Strand	fitted relative affinity [z-score]
TCATGTGTATATATAATACTGTGCTAG	0.253
TTTGGTCTCGGTATCGGTTAGTGCTAG	9.03
CACGATTTCAGTTCCGAGACGTGCTAG	0.917
TTAGGACTGTTACTGCTTTAGTGCTAG	-0.0141
TTAGGTATCGGTATCGGCTAGTGCTAG	10.1
TTAGATATCAGTTTAGATTAGTGCTAG	0.466
TTGGGTTTCGGTTTCGGTTAGTGCTAG	15.5
GGGTCTTCAGGTTCTCCCCCAGTGCTA	0.144
GACGATATCGGGTTTCGAGATGTGCTA	2.35
TTAGAACTGAGACTCGATTAGTGCTAG	0.149
TTAGGGATCGGGACTGGGTTAGTGCTA	-0.312
GACGGTTCCGGTTCCGGGACGTGCTAG	2.89
TAGTTTCTAAAACTCTTTATGTGCTAG	2.64
GACGGTTTCGGGTATAGGGACGTGCTA	9.05
GACGGTTTCGTTATCGGGACGTGCTAG	9.36
TCAGGTATCGGGACTGGGTTAGTGCTA	3.02

Block 2 — technique: RNA Bind-n-Seq; molecule type: RNA; medium: in vitro; tested at: 200 nM; setting: whole 134-nt RNA, ends assumed; added: 150 mM KCl; baseline: input library; reading: higher = stronger binding
Target: Ras GTPase-activating protein-binding protein 1, full length (G3BP1, Homo sapiens, UniProt Q13283)
UniProt Q13283, sequence (whole entry, looked up): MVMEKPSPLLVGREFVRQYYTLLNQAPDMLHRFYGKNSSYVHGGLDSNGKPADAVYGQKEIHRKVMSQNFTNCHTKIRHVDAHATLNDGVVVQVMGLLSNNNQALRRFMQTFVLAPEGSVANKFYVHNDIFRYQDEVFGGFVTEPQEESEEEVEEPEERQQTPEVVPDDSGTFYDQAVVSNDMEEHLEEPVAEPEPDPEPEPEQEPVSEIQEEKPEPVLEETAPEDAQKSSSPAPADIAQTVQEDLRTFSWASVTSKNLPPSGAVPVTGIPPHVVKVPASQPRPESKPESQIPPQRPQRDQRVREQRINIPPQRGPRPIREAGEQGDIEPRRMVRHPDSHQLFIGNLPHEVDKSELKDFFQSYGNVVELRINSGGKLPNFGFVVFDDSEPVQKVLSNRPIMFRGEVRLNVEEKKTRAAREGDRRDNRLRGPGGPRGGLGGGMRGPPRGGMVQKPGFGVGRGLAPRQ
Strand	log2 enrichment
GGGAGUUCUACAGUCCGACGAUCCCCUGUGGGCCUUGCUCAGAGCGGAGAAAGCAUUUGUUUGUACAAGAUCCGCAGACGUGUAAAUGUUCCUGCAAAAACACAGACUCGCGUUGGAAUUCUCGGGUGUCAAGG	-1.07
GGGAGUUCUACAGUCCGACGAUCUAACUUUAGAGGAGGAACUGAUGGAUAUGGCAGUGGACGUGGAUUUGGGGAUGGCUAUAAUGGGUAUGGAGGAGGACCUGGAGGUGGCAAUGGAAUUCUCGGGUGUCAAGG	0.393
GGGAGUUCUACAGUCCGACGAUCAGUCCUGUGCUACACAUCGUAUGUACCGAAUCGGGGAGGGGAGGGGAAAAAAAGGGGAAAGUAUUAUGUUACGCCGUUCGGAUCUGCACUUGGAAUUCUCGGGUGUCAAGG	0.491
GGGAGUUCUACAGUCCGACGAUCCUGUGCUACACAUCGUAUGUACCGAAUCGGGCCCCCCCGGGCCCCCCCGGCCCCCCCGGGGAAAGUAUUAUGUUACGCCGUUCGGAUCUGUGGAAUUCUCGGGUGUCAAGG	-0.809
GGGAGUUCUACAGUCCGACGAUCACCAUGCAGGUGGGCAUCUUUGGGAAGUGGGGCAAGGGGGGGAUAGGGAGAGGGGUAACACUUUGGGAACAGGUGGUCCCAGGUCGUUUCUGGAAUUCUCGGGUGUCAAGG	1.15
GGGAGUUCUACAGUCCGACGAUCUCCUGUGCUACACAUCGUAUGUACCGAAUCAAAUUUAAAUUUUUUUAAAUUUUUUUAAAAAAGUAUUAUGUUACGCCGUUCGGAUCUGCAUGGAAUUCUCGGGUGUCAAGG	-0.763
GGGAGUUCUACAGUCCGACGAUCACCAUGCAGGUGGGCAUCUUUGGGAAGUGGGGCAAGGGGGGGAUAGGGAGGGGGGUAACACUUUGGGAACAGGUGGUAAAAGGUCGUUUCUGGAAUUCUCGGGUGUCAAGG	1.22
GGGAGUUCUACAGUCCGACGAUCACCAUGCAGGUGGGCAUCUUUGGGAAGUGGGGCAAGGGGGGGAUAGGGAGGGGGGGAACACUUUGGGAACAGGUGGUCCCAGGUCGUUUCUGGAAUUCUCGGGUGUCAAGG	1.51
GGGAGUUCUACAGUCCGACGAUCUGGCCCUGGUGGCAUGCGGGGAGGAAGAGGUGGCCUCAUGGAUCGUGGUGGUCCCGGUGGAAUGCUCAGAGGUGGCCGUGGUGGAGACAGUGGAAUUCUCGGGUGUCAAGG	0.132
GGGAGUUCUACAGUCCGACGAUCCUCAAGUCCUGUGCUACACAUCGUAUGUACCGAAUCGGAAGGAAGGGGAAGGGAAAGUAUUAUGUUACGCCGUUCGGAUCUGCACUUCCAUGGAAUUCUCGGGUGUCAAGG	-0.211
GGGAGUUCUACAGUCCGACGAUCACCAUGCAGGUGGGCAUCUUUGGGAAGUGAAACAAGGGGGGGAUAGGGAGGGGGGUAACACUUUGGGAACAGGUGGUCCCAGGUCGUUUCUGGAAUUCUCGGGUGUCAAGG	1.56
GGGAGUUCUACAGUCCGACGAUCCGGCCCUGGUGGCAUGCGGGGAGGAAGAGGUGGCCUCAUGGAUCGUGGUGGUCCCGGUGGAAUGUUCAGAGGUGGCCGUGGUGGAGACAGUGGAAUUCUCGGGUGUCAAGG	0.189
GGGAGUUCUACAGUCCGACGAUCUCCUCAAGUCCUGUGCUACACAUCGUAUGUACCGAAUCGGGCGGGCGGGCGGAAAGUAUUAUGUUACGCCGUUCGGAUCUGCACUUCCAGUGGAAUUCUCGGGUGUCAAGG	1.72
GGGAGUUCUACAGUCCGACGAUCAAGUCCUGUGCUACACAUCGUAUGUACCGAAUCGGAAAGGUUUUUGGAAAAAAAGGAAAGUAUUAUGUUACGCCGUUCGGAUCUGCACUUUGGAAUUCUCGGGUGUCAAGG	-1.49

Block 3 — technique: RNA Bind-n-Seq; molecule type: RNA; medium: in vitro; tested at: 365 nM; baseline: no-protein control; reading: higher = stronger binding
Target: RNA binding protein fox-1 homolog 2, RRM domain, GST-SBP tag (RBFOX2, Homo sapiens, UniProt O43251-10, residues 100-194)
Setting: natural RNA segment, single round, ends assumed
Target sequence (chain): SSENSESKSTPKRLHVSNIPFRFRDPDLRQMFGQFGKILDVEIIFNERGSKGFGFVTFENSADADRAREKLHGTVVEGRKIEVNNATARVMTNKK
Strand	RBNS enrichment (R)
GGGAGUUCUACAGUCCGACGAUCCCCAGUUACCACUAGGACAUUCUCUAGUAGAUCCAUUUUGCUGUCACUUUAUUCUAUGGCUAGAAAGUCAGUGGAAAGUAAAUGUGCCAAACUCACUUGUCAGAACACACUGGAAUUCUCGGGUGCCAA	0.316
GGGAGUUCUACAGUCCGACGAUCAAGGUGGUUCGCUUUGAGGUGGUCUGAAGCCAAGGCCUCGCGGAGCUUCUUUGUGUGUCACCUUGCUUCCACGUUUCAGUUCUUGUUUUGUUUCUACUGCUUUAGUUUUUUGGAAUUCUCGGGUGCCAA	0.901
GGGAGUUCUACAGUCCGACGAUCGUCUGUGUUGUGCCCAAGUGCCUGCGCCACCCCCACCCUCCUGCUGCGCUGACCGCUGCAUGGUGUCGUGACCUGGGCCUCAUUUGUAGCUGCACUGCCUUUCCUUGUCUUGGAAUUCUCGGGUGCCAA	0.392
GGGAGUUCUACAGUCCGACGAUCAAUACUGAACCUGCCUGCUGAACAGCCUGUCCCAUCCAUCCCUAUGAGUGACCAUCCGUCCGAAUGUUCUCCCACUUCCUUCAGCCUCUCCUCGGCUUCUUGCACUGAGCUGGAAUUCUCGGGUGCCAA	2.81
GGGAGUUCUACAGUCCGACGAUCGUGUCCCCCAGGUUCCGAAGAAGAUGCUCCAGCAACACAGCCUGGGCCCCAGCUCGCGGGACCCGACCCCCCGUGGGCUCCCGUGUUUUGUAGGAGACUUGCCAGAGCCGUGGAAUUCUCGGGUGCCAA	0.358
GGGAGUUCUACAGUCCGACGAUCUUCCCUUUGGCUGUGACUGGGUGGGGCAGCAUGCAGCUUCUGAUUUUAAAGAGGCAUCUAGGGAAUUGUCAGGCACCCUACAGGAAGGCCUGCCAUGCUGUGGCCAACUGUGGAAUUCUCGGGUGCCAA	3.4
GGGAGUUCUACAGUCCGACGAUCUGGUGGAAGACACCCACCAGGUCAUACAAUGUGAACUUUUGUAUCUCUGCAGUGGUUUCAAGGACAAAUAGUGUCCAAUGUAUUGGGCCAUUUUUCCUGCUGUUUUUAUAUGGAAUUCUCGGGUGCCAA	0.479
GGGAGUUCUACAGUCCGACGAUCAAAGAGUGGAACUAUCCAAAAGAGACAGGGAGAAAUAAAUAAAUUGCCUCCCUUCCUCCGCUCCCCUUUCCCAUCACCCCUUCCCCAUUUCCUCUUCCUUCUCUACUCAUUGGAAUUCUCGGGUGCCAA	1.29
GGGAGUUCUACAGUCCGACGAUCGACCAUAUUUUCUCCACUGUCACCUAGACACUUAUGGGUUAGUGUCCCUUCCAUCUGCCUGGUGCAGGAAGCAGGGCCGUCAUGCCAACGCGCCCAGUCCAGGAUCUGCCUGGAAUUCUCGGGUGCCAA	0.232
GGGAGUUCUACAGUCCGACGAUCUCUCCAGUGAAUCUCAUUCCAGGUCCUGCUCUAAGGCUCUGGGGACUAGGCUGGGCCUGGCCCCAGAAGCCGGGCAGUUCCUGCCUCCUUCUCCACUUUUAUAAAGCCAAUGGAAUUCUCGGGUGCCAA	0.552
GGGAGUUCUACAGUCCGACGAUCCAGUUUUAUGCUCUCGGAAGGCUCAGCAGUGAUUGCUGCCGAGUGGGAAGUAGCUUCUCCCAGCUGUUCCUCACCUCACCAGAUAUUUUCCCAAAGCCGAAACAAGAAAAUGGAAUUCUCGGGUGCCAA	0.392
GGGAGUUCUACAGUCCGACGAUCACUAUCACCUCUCUAAUUUAAAAUGCAUGAAAAUUAAUACUUUGUUUUUGUUUUUUUUUUGGAAACAGUCUCACUCUGUCACCCAGGCUGGAGGGCACAAUCUCUGCUCAUGGAAUUCUCGGGUGCCAA	5.4

Block 4 — target: CCNB1, cyclin fold, Cln2 fusion (human); technique: yeast growth competition, sequencing; medium: yeast; setting: weak parent motif; baseline: not given; reading: higher = stronger binding
Parent: FOXM1 docking peptide (human); PHLARPIKVESPP
Substitution	normalised enrichment score
R5A	-0.305
E10A	-0.428
P6A	-0.287
V9A	0.09
P12A	-1.15
P1A	-0.131

Block 5 — technique: protein binding microarray; molecule type: double-stranded DNA, one strand shown; medium: in vitro; tested at: not given; baseline: not given; reading: higher = stronger binding
Target: Histone acetyltransferase KAT6A, winged helix 2, GST fusion (KAT6A, Homo sapiens, UniProt Q92794, residues 85-181)
Setting: 8-mer, flanks averaged, mean of 2 arrays, mostly near background
Construct (chain): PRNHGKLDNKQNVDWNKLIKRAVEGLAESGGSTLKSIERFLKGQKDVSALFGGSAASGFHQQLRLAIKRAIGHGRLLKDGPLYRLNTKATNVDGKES
Strand	E-score
GCTCTAGA	-0.227
ACAGCTCT	-0.181
GCAGAGCA	0.196
AGGACGTC	-0.218
GCTTGGAC	-0.0377
GTTGCAAC	-0.0969
CTCTAATA	-0.0138
ACGAAGTC	-0.123
ATTTTTGA	-0.0317
GGCAAATA	0.101
CGACAACA	0.0551
GCCGCTTA	0.038
GACCGGAA	-0.11
ACGAGGTA	-0.097
CCCGGCGC	0.225
AATGCTAT	0.0257
AACTACGT	-0.186
GAGCCAGA	-0.0554
CGTCTGGA	0.0458
GGCCCTTA	-0.0135
CGTCGTCC	-0.0548
ATTAGCTA	-0.149
AACTGAAA	-0.0762
CTGGCCGC	0.006
CAGTTGAG	-0.141
